Assay results collected from several papers.
Each numbered part is a random draw from the data of one study; scales do not carry over between parts.

Set 1
Target: Histone acetyltransferase KAT6A, both winged helices, GST fusion (KAT6A, Homo sapiens, UniProt Q92794, residues 1-181)
Method: protein binding microarray
Form: double-stranded DNA, one strand shown
Matrix: in vitro
Concentration: not given
Notes: 8-mer, flanks averaged, mean of 2 arrays, mostly near background
Baseline: not given
Direction: higher = stronger binding
Quantity: E-score
Target sequence (chain): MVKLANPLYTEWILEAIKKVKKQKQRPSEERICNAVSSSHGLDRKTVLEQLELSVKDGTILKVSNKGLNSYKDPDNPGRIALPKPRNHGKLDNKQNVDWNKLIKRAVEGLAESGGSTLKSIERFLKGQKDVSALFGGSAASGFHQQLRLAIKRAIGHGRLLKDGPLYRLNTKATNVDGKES
Strand = ACACCTCC; result = -0.0615
Strand = GACTACTC; result = 0.105
Strand = GTCAGTTA; result = -0.101
Strand = CCCGCGTA; result = 0.213
Strand = GTTGTGAA; result = -0.114
Strand = ATACTGAC; result = -0.0397
Strand = CCGCGGGC; result = 0.335
Strand = AGCCTAAC; result = -0.0112
Strand = GTGGGGGA; result = -0.155
Strand = AGGTATCA; result = -0.196
Strand = ATCTCGCA; result = -0.0818
Strand = AAATTGTT; result = -0.00282
Strand = TCGCGCCA; result = 0.166
Strand = GACGTCGC; result = 0.155
Strand = ATAGCCCG; result = 0.145
Strand = GTGCCAAC; result = -0.119
Strand = CAATACGA; result = 0.0436
Strand = GGACGGTA; result = 0.24
Strand = GGTAGGAA; result = -0.0915
Strand = GACGGGAC; result = 0.24
Strand = TCAGTTAA; result = -0.141
Strand = GAATGGGA; result = -0.288
Strand = ATAACGAC; result = -0.0398
Strand = AAACGGTG; result = 0.0183
Strand = ATATAACA; result = 0.0348

Set 2
Target: Interferon regulatory factor 5, full length, phosphomimetic (IRF5, Homo sapiens, UniProt Q13568-2, residues 1-514, S451D/S453D/S456D/S462D)
Method: protein-binding microarray
Form: double-stranded DNA, one strand shown
Matrix: in vitro
Concentration: 940 nM top
Notes: 60-bp whole probe
Together with: salmon DNA 0.4 mg/ml
Baseline: random background probes
Direction: higher = stronger binding
Quantity: fitted relative affinity
Constant ends, left off below: GCCTAGCAC … GTCTTGATTCGCTTGACGCTGCTG
Strand = TTAGATATCGGGACTCGATTAGTGCTA; result = 0.0924 z-score
Strand = GACGGACTTCTACTGCTGACGTGCTAG; result = 0.234 z-score
Strand = CAACCTATAGGTTCAACGACGTGCTAG; result = -0.267 z-score
Strand = TGGGTCTTGGTTCTCAGCTTGTGCTAG; result = 0.586 z-score
Strand = GGCGGTTTCCTTCTCCTGACGTGCTAG; result = 2.31 z-score
Strand = GACGGACTCCTACTGCTGACGTGCTAG; result = -0.322 z-score
Strand = TCATCTCTTATTCTAACACTGTGCTAG; result = 1.01 z-score
Strand = GACGCACTGCTTTTCCTGACGTGCTAG; result = -0.0618 z-score
Strand = GACGAACTGAGAGTGGAGACGTGCTAG; result = -0.42 z-score
Strand = TCACCTTTATATACCTGACTGTGCTAG; result = 1.24 z-score
Strand = CCCCCAGGATTCAATTACCAGTGCTAG; result = 0.255 z-score
Strand = GACGGTATCCTTTTCCCGACGTGCTAG; result = 1.21 z-score
Strand = GACGGTTTCGGGTATCTGGACGTGCTA; result = 9.27 z-score
Strand = GCTCATCTGTCATGTTTGTCAGTGCTA; result = 2.19 z-score
Strand = TTAGAACTGAGGCTCGATTAGTGCTAG; result = -0.446 z-score
Strand = TCAAATATCTTTGTTGAACTGTGCTAG; result = -0.095 z-score
Strand = GACGGACTGGACTATCGGCACGTGCTA; result = -0.611 z-score
Strand = GACGGCATCGGACTGGGGACGTGCTAG; result = -0.342 z-score
Strand = GCCGGTATCGGGACTGGGGACGTGCTA; result = 3.81 z-score

Set 3
Target: Sal-like protein 4, full length isoform B (SALL4, Homo sapiens, UniProt Q9UJQ4-2, residues 1-616)
Method: universal PBM
Form: double-stranded DNA, one strand shown
Matrix: in vitro
Concentration: not given
Notes: 8-mer, flanks averaged, mean of replicates
Direction: higher = stronger binding
Quantity: E-score
Strand = GGACATGA; result = -0.0142
Strand = GAAGTCAC; result = -0.035
Strand = GCGCTAGA; result = -0.147
Strand = AGAAACGG; result = -0.0502
Strand = CGGACCGC; result = -0.358
Strand = GTACAGCA; result = -0.0641
Strand = ATGCTCAG; result = -0.0427
Strand = GAGACGGA; result = -0.231
Strand = GTAGGAGA; result = -0.0295
Strand = AGGAGACG; result = -0.266
Strand = TACCAGCA; result = 0.00221
Strand = CTCTATTA; result = 0.218
Strand = AACTAGTA; result = 0.131
Strand = CTGATTTA; result = 0.185
Strand = GCGGAGGA; result = -0.21
Strand = GAGCGCCA; result = -0.258

Set 4
Target: RNA binding protein fox-1 homolog 2, RRM domain, GST-SBP tag (RBFOX2, Homo sapiens, UniProt O43251-10, residues 100-194)
Method: RNA Bind-n-Seq
Form: RNA
Matrix: in vitro
Concentration: 365 nM
Notes: natural RNA segment, single round, ends assumed
Baseline: no-protein control
Direction: higher = stronger binding
Quantity: RBNS enrichment (R)
Residues (chain): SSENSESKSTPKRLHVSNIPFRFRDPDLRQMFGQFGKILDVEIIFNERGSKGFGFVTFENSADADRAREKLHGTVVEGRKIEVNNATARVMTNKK
Strand = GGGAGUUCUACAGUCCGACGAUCCAUUUCCCCCAAAACCUUAGACAUUCAUAGUAGAUUUUAAUUAGUUAGCUUUCUAACUAGUCAGAUUUCUGCCCAAAGUGCUUAGUCAAUAGUAAUUAAGAUAUAGCUUCUGGAAUUCUCGGGUGCCAA; result = 0.296
Strand = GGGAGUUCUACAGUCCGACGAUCGGAUGACAUCCUGUUUAUUUUCCCAUUUGGAUGCCACAUGGUAUCCAAAGCUGGUAGAGCAGCUAUCAUGCCUCAGGCCAUGGACAUUUGAAUGGGAGCCUCAGGCAUGAUGGAAUUCUCGGGUGCCAA; result = 0.583
Strand = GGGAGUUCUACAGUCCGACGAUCCGCCUUUUUAAGACUUGAGUGGUGGCACUAGCCAGUGUCCCCCAUGGCUGGGCAGUUGAGCACCUGCUCUUCACCUGCCCUGGCUAUGGCUGUGGCAAGCUGUGAGCCCUUGGAAUUCUCGGGUGCCAA; result = 0.264
Strand = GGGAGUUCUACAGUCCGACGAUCUUGGGCCUCUCUUGACUAUAGCAGGCUGCUGCUGCGGCUUGUCUGGACACCUGGGGACUUCCCCGCCUCCCUUCCCUUCUGUGUCCCCAGGUCCCCCGCAGGCCCCUGAGUGGAAUUCUCGGGUGCCAA; result = 0.676
Strand = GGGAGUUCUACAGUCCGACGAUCCUGGACCUCUCACCCUGGGCCUCAGUGAAGGAGUAGGAACCUGCUGCCCACAGCUUCCUACAUCGAACAUGUCCAUGGUCCGAGAUGCCAUUUCAAACAGUUCCAGUGACUGGAAUUCUCGGGUGCCAA; result = 0.205
Strand = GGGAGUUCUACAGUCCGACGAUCUGCCCGCUGUCGGCUGGUUAUAGCACUUCCACUGCUACUGUCAGAUAGGAAGUGAUCGAAGCAGGGGGCAAAGAGAAAGCCCAUAUUUGUUCUAAGCAGAAAAGCAGGAAUGGAAUUCUCGGGUGCCAA; result = 1.82
Strand = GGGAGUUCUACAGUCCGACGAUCAAAUCCUCUGUUUAGCUUAGUUGCACAAAAGGUAGUAUGUCCAGUGGCUAGAGGUGGGGUGGGAAGAGAGGAGGCCAGGCCAGGCCCUCAGGAAUUCCCUGGUUUCCACUUGGAAUUCUCGGGUGCCAA; result = 0.665
Strand = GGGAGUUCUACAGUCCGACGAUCCCCCAAAGCCCUGUGAACUGCCUGCUGUCCUGUGAACUGCCUGCUGCCCUGUGAGGUGUGGGAGCCCUGAUGCUGCCGUGUGAUGUUUCAAUAAAGGUGGAUCUCACUGUUGGAAUUCUCGGGUGCCAA; result = 1
